Experimental data collected from several papers.

`C[C@H]1CO[C@@H]2Cn3cc(C(=O)NCc4ccc(F)cc4F)c(=O)c(O)c3C(=O)N12` gave an AUC(0-inf) of 169000 ng·h/mL (human, plasma; oral, 30 mg, single dose, fed, healthy volunteers).
For `CCCOc1ccc([C@H]2CNC(=O)N2c2ccc3[nH]cnc3c2)cc1`, the AUC(0-inf) was 17900 ng·h/mL (human, plasma; oral, 1200 mg, single dose, fed, healthy volunteers).
The AUC(0-inf) of `Cc1[nH]c2ccccc2c1CCNCc1ccc(/C=C/C(=O)NO)cc1` is reported as 144 ng·h/mL (human, plasma; oral, 20 mg, single dose, fed).
`CCc1nc(C(N)=O)c(Nc2ccc(N3CCC(N4CCN(C)CC4)CC3)c(OC)c2)nc1NC1CCOCC1` gave an AUC(0-inf) of 1780 ng·h/mL (human, plasma; oral, 40 mg, single dose, fasted, healthy volunteers).
`O=C(CCCCCCC(=O)Nc1ccccc1)NO` has an AUC(0-inf) of 4.81 µM·h (human, serum; oral, 400 mg).
`CCOc1ccc(Cc2cc([C@@H]3S[C@H](CO)[C@@H](O)[C@H](O)[C@H]3O)c(OC)cc2C)cc1` gave an AUC(0-inf) of 3050 ng·h/mL (human, plasma; oral, 9 mg, single dose, fasted, healthy volunteers).
With `C=CC(=O)Nc1cc(Nc2ncc(C(=O)OC(C)C)c(-c3cn(C)c4ccccc34)n2)c(OC)cc1N(C)CCN(C)C` the AUC(0-inf) was 64 ng·h/mL (human, plasma; oral, 20 mg, single dose, fasted, healthy volunteers).
`CC[C@@]1(O)C(=O)OCc2c1cc1n(c2=O)Cc2cc3c(CN(C)C)c(O)ccc3nc2-1` gave an AUC(0-inf) of 61 ng·h/mL (human, plasma; oral, 4 mg, patients).
The AUC(0-inf) of `O=C(c1nc2n(n1)[C@H](c1ccccc1)C[C@@H]2F)C1CC1` is reported as 4920 ng·h/mL (human, plasma; oral, 25 mg, single dose, fasted, healthy volunteers).
`O=C(/C=C/c1cccc(S(=O)(=O)Nc2ccccc2)c1)NO` has an AUC(0-inf) of 66.7 µM·h (human, plasma; intravenous, 800 mg/m², patients).
For `CS(=O)(=O)n1cc2c(n1)CN([C@H]1CO[C@H](c3cc(F)ccc3F)[C@@H](N)C1)C2`, the AUC(0-inf) was 9.78 µM·h (male human, plasma; oral, 10 mg, single dose, fasted).
For `C[C@@H]1CCC[C@H](n2cnc(-c3cc(Cl)ccc3-n3cc(Cl)nn3)cc2=O)c2cc(ccn2)-c2c(cnn2C(F)F)NC1=O`, the AUC(0-inf) was 1280 ng·h/mL (human, plasma; oral, 20 mg, single dose, fasted, healthy volunteers).
With `CCOc1cc([C@@H](CS(C)(=O)=O)N2C(=O)c3cccc(NC(C)=O)c3C2=O)ccc1OC` the AUC(0-inf) was 3270 ng·h/mL (human, plasma; oral, 30 mg, single dose, healthy volunteers).
For `Nc1ccc(-c2nc([C@H]3CCc4cc(-c5cc(Cl)ccc5-n5cnnn5)cc(=O)n43)c(F)[nH]2)c(F)n1`, the AUC(0-inf) was 148 ng·h/mL (human, plasma; oral, 1 mg, single dose, fasted).
`CC(C)(Sc1ccncc1-c1ccc(C#N)c2ccccc12)C(=O)O` gave an AUC(0-inf) of 29.9 ng·h/mL (male human, plasma; oral, 2.5 mg, single dose, fasted).
With `COc1cccc(-c2ccc(NC(=O)C3=C(C(=O)O)CCC3)c(F)c2)c1` the AUC(0-inf) was 138000 ng·h/mL (male human, plasma; oral, 30 mg, single dose, fasted, healthy volunteers).
With `CNC(=O)c1ccccc1Sc1ccc2c(/C=C/c3ccccn3)n[nH]c2c1` the AUC(0-inf) was 288 ng·h/mL (human, plasma; oral, 10 mg, single dose, fed).

For quick reference, copied from above:
`CCOc1ccc(Cc2cc([C@@H]3S[C@H](CO)[C@@H](O)[C@H](O)[C@H]3O)c(OC)cc2C)cc1` gave an AUC(0-inf) of 3050 ng·h/mL (human, plasma; oral, 9 mg, single dose, fasted, healthy volunteers).
With `C=CC(=O)Nc1cc(Nc2ncc(C(=O)OC(C)C)c(-c3cn(C)c4ccccc34)n2)c(OC)cc1N(C)CCN(C)C` the AUC(0-inf) was 64 ng·h/mL (human, plasma; oral, 20 mg, single dose, fasted, healthy volunteers).
